Published values pooled from the literature.
A part holds a random share of what one study measured.

Set 1
Target: Transcription factor SOX-2, HMG box (SOX2, Homo sapiens, UniProt P48431, residues 19-118)
UniProt P48431, sequence (19-118, looked up): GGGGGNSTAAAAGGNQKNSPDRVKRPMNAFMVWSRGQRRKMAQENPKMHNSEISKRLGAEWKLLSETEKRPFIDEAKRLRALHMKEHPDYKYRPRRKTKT
Technique: protein-binding microarray
Molecule type: double-stranded DNA, one strand shown
Medium: in vitro
Concentration: not given
Notes: k-mer, scored over probes, only values ≥0.25
Reading: higher = stronger binding
Strand	E-score
AATACAA	0.362
ATTACAA	0.308
CATAATG	0.369
CTATACA	0.261
ATATACA	0.252
GAACAAA	0.412
AATATTC	0.256
AATTCTC	0.26

Set 2
Target: PABPC1L2, full length, GST fusion (mouse, UniProt A0ABA7IW68)
Technique: RNAcompete
Molecule type: RNA
Medium: in vitro
Concentration: 20 nM
Notes: 7-mer, probes averaged, single round
Relative to: mean of 7-mers
Reading: higher = stronger binding
Target sequence (chain): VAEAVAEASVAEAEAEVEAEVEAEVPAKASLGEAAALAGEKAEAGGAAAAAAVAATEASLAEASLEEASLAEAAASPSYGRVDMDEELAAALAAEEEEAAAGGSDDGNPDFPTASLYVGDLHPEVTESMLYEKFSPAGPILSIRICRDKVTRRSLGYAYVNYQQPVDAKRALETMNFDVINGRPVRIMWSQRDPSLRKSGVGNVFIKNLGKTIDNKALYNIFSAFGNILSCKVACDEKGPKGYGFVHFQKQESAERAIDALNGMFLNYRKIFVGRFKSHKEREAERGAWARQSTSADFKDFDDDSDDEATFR
Strand	7-mer Z-score
CGGGACC	0.0279
UGAAAGU	0.0261
GAAUUUU	-0.286
AAUCAGA	0.407
UCGCUAG	-0.324
UGACCGC	-0.0844
AGGUUCA	-0.204
ACAUGAC	0.104

Set 3
Partner: H2BC18 (Homo sapiens, UniProt Q5QNW6)
Technique: cross-linking MS
Notes: hits only
Substance	interaction screen
H3-4 (Homo sapiens, UniProt Q16695)	cross-linked
H2AZ1 (Homo sapiens, UniProt P0C0S5)	cross-linked
H2AX (Homo sapiens, UniProt P16104)	cross-linked
Histone H2B type 1-C/E/F/G/I (Homo sapiens, UniProt P62807)	cross-linked

Mixed results
Compound	cell line	conditions	quantity	value
COc1cc(NS(C)(=O)=O)ccc1Nc1c2ccccc2nc2ccccc12	A-375	100 µM, 36 h	viability	9.75%

Excerpt of the above (set 1):
Strand	E-score
CTATACA	0.261
ATATACA	0.252
GAACAAA	0.412
